{"data": "Experimental data pooled from the literature", "note": "Each numbered part is a random draw from the data of one study; scales do not carry over between parts.", "UniProt Q13705, sequence (whole entry, looked up)": "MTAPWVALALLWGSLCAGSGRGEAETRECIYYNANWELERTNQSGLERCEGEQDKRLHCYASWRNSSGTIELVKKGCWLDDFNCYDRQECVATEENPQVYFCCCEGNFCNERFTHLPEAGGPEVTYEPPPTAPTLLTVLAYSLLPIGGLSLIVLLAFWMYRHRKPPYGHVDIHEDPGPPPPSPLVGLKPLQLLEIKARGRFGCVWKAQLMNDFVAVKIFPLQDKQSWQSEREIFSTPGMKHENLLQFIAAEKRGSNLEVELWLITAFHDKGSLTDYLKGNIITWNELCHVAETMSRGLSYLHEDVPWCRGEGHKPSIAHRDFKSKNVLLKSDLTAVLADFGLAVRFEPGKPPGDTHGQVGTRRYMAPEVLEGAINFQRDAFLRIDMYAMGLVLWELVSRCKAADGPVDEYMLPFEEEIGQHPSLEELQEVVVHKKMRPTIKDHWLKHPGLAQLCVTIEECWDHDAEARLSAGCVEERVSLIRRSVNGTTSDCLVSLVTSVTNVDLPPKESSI", "UniProt Q15569, sequence (whole entry, looked up)": "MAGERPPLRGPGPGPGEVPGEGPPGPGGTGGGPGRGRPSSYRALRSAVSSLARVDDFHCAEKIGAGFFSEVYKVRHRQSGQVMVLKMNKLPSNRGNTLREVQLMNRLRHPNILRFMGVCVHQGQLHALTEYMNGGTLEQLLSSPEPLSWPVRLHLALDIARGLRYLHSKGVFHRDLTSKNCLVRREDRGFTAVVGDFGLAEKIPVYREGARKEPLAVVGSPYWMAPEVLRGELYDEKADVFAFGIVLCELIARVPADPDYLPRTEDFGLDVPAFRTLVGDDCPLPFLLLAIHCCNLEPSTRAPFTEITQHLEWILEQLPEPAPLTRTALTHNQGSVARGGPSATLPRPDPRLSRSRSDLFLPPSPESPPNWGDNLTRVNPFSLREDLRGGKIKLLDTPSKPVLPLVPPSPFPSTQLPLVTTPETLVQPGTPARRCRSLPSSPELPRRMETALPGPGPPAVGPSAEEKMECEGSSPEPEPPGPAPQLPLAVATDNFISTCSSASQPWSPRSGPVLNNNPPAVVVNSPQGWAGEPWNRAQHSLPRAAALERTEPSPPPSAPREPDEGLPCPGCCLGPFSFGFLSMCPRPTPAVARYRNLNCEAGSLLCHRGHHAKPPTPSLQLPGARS", "UniProt P32298, sequence (whole entry, looked up)": "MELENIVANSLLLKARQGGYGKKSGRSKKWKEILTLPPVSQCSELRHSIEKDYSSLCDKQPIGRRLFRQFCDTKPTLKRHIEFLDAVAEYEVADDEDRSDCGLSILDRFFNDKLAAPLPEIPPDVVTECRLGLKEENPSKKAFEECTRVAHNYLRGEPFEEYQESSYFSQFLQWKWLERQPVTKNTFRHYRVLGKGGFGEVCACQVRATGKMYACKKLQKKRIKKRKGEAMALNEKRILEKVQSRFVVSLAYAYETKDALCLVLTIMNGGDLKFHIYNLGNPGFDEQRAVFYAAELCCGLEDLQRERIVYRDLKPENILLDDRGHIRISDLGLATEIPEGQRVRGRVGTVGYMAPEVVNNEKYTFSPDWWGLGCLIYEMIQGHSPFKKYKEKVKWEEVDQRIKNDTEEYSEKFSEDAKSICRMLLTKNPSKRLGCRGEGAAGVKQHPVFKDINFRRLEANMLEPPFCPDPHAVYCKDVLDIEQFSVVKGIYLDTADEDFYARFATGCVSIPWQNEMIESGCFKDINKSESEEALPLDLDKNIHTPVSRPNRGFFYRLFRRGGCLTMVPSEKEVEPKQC", "UniProt Q13976, sequence (whole entry, looked up)": "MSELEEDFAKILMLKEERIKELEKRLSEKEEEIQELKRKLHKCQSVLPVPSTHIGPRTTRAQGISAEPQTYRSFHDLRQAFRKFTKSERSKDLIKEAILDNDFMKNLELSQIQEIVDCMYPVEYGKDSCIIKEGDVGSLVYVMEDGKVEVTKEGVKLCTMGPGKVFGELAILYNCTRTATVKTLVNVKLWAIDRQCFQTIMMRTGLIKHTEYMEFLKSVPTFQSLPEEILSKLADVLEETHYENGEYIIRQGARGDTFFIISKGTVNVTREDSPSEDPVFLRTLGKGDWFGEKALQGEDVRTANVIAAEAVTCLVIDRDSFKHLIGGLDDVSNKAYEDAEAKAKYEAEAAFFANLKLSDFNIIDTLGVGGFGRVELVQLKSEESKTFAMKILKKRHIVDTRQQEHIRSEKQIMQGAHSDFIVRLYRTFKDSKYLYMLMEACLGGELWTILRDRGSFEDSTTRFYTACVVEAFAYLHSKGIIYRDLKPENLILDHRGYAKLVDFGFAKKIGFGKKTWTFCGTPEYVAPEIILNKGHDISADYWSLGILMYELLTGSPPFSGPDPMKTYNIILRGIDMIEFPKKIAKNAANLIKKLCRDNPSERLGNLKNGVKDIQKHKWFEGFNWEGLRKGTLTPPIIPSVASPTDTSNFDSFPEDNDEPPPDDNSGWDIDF"}
{"data": "Block 1", "organism": "Sarcocystis neurona", "observed": "parasite growth", "tested at": "10 µM"}
{"Structure (SMILES)": "CN(C/C=C/C#CC(C)(C)C)Cc1cccc2ccccc12", "inhibition [%]": -32.9}
{"Structure (SMILES)": "CCN(CC)CCNC(=O)c1cc(Cl)c(N)cc1OC.Cl", "inhibition [%]": -20.1}
{"Structure (SMILES)": "Cc1c2oc3c(C)ccc(C(=O)N[C@@H]4C(=O)N[C@H](C(C)C)C(=O)N5CCC[C@H]5C(=O)N(C)CC(=O)N(C)[C@@H](C(C)C)C(=O)O[C@@H]4C)c3nc-2c(C(=O)N[C@@H]2C(=O)N[C@H](C(C)C)C(=O)N3CCC[C@H]3C(=O)N(C)CC(=O)N(C)[C@@H](C(C)C)C(=O)O[C@@H]2C)c(N)c1=O", "inhibition [%]": 9}
{"Structure (SMILES)": "O=C(CCCN1CC=C(n2c(=O)[nH]c3ccccc32)CC1)c1ccc(F)cc1", "inhibition [%]": 29.6}
{"Structure (SMILES)": "NS(=O)(=O)c1cc2c(cc1C(F)(F)F)NCNS2(=O)=O", "inhibition [%]": -20.6}
{"data": "Block 2", "method": "PRP chromatography", "notes": "linear fit, 1 mL"}
{"SMILES": "CC(C)C[C@@H]1NC(=O)[C@H](CC(C)C)NC(=O)[C@@H](C(C)C)NC(=O)[C@H](C(C)C)NC(=O)[C@H](C(C)C)NC(=O)[C@H](Cc2cscn2)NC(=O)[C@H](C)NC1=O", "logD 1,9-decadiene/water [log units]": -0.768}
{"SMILES": "CC(C)C[C@@H]1NC(=O)[C@H](CC(C)C)NC(=O)[C@@H](CC(C)C)NC(=O)[C@@H](C)NC(=O)[C@H](C(C)C)NC(=O)[C@H](Cc2cscn2)NC(=O)[C@H](C)NC1=O", "logD 1,9-decadiene/water [log units]": -1.84}
{"SMILES": "CC(C)C[C@@H]1NC(=O)[C@H](Cc2cscn2)NC(=O)[C@H](Cc2cscn2)NC(=O)[C@H](CC(C)C)NC(=O)[C@@H](CCC(=O)N2CCCC2)NC(=O)[C@H](CC(C)C)NC(=O)[C@@H](CC(C)C)NC1=O", "logD 1,9-decadiene/water [log units]": -0.93}
{"SMILES": "CC(C)C[C@@H]1NC(=O)[C@H](Cc2cscn2)NC(=O)[C@H](Cc2cscn2)NC(=O)[C@H](CCC(=O)N2CCCC2)NC(=O)[C@@H](CCC(=O)N2CCCC2)NC(=O)[C@H](CC(C)C)NC(=O)[C@@H](CC(C)C)NC1=O", "logD 1,9-decadiene/water [log units]": -2.14}
{"data": "Block 3", "Compound": "CS(=O)(=O)N1CCCC(NC(=O)[C@H](CCC2CCCCC2)NC(=O)c2ccc(CNc3ncnc4c3nnn4-c3ccccc3)cc2)C1 (some centres unmarked)", "method": "competition with immobilised ligand", "tested at": "0.1 µM"}
{"target": "Tyrosine-protein kinase ABL1, non-phosphorylated (ABL1, Homo sapiens, UniProt P00519, Q252H)", "assay": "cell-free assay", "remaining binding": "89%"}
{"target": "Activin receptor type-2B (ACVR2B, Homo sapiens, UniProt Q13705)", "assay": "binding", "remaining binding": "83%"}
{"target": "cGMP-dependent protein kinase 1 (PRKG1, Homo sapiens, UniProt Q13976)", "assay": "cell-free assay", "remaining binding": "95%"}
{"target": "Dual specificity testis-specific protein kinase 1 (TESK1, Homo sapiens, UniProt Q15569)", "assay": "cell-free assay", "remaining binding": "100%"}
{"target": "G protein-coupled receptor kinase 4 (GRK4, Homo sapiens, UniProt P32298)", "assay": "cell-free assay", "remaining binding": "100%"}
{"target": "Mitogen-activated protein kinase kinase kinase 4 (MAP3K4, Homo sapiens, UniProt Q9Y6R4)", "assay": "cell-free assay", "remaining binding": "75%"}
{"data": "Block 4", "cell line": "A-375", "tested at": "100 µM", "time": "36 h"}
{"Structure (SMILES)": "O=C1CN(/N=C/c2ccc(-c3ccc([N+](=O)[O-])cc3)o2)C(O)=N1", "viability [%]": 77.2}
{"Structure (SMILES)": "C#C[C@]1(O)CC[C@H]2[C@@H]3CCc4cc(OC5CCCC5)ccc4[C@H]3CC[C@@]21C", "viability [%]": -2.67}
{"Structure (SMILES)": "Cc1nc2n(c(=O)c1CCN1CCC(c3noc4cc(F)ccc34)CC1)CCCC2O (centres unmarked)", "viability [%]": 96.4}
{"Structure (SMILES)": "Cc1cc(C#N)cc(C)c1Oc1nc(Nc2ccc(C#N)cc2)nc(N)c1Br", "viability [%]": 15.9}
{"Structure (SMILES)": "CCN(CC)CCOCCOC(=O)C(CC)(CC)c1ccccc1", "viability [%]": 85.6}
{"Structure (SMILES)": "S=C1SCN(Cc2ccccc2)CN1Cc1ccccc1", "viability [%]": 38.1}
{"Structure (SMILES)": "CN(C)[C@@H]1C(O)=C(C(N)=O)C(=O)[C@@]2(O)C(O)=C3C(=O)c4c(O)ccc(Cl)c4[C@@](C)(O)[C@H]3C[C@@H]12", "viability [%]": 75.5}
{"data": "Block 5", "target": "Homeodomain-interacting protein kinase 3 (HIPK3, Homo sapiens, UniProt Q9H422)", "observed": "enzyme activity", "action": "inhibitor", "tested at": "0.5 µM", "baseline": "control", "UniProt Q9H422, sequence (whole entry, looked up)": "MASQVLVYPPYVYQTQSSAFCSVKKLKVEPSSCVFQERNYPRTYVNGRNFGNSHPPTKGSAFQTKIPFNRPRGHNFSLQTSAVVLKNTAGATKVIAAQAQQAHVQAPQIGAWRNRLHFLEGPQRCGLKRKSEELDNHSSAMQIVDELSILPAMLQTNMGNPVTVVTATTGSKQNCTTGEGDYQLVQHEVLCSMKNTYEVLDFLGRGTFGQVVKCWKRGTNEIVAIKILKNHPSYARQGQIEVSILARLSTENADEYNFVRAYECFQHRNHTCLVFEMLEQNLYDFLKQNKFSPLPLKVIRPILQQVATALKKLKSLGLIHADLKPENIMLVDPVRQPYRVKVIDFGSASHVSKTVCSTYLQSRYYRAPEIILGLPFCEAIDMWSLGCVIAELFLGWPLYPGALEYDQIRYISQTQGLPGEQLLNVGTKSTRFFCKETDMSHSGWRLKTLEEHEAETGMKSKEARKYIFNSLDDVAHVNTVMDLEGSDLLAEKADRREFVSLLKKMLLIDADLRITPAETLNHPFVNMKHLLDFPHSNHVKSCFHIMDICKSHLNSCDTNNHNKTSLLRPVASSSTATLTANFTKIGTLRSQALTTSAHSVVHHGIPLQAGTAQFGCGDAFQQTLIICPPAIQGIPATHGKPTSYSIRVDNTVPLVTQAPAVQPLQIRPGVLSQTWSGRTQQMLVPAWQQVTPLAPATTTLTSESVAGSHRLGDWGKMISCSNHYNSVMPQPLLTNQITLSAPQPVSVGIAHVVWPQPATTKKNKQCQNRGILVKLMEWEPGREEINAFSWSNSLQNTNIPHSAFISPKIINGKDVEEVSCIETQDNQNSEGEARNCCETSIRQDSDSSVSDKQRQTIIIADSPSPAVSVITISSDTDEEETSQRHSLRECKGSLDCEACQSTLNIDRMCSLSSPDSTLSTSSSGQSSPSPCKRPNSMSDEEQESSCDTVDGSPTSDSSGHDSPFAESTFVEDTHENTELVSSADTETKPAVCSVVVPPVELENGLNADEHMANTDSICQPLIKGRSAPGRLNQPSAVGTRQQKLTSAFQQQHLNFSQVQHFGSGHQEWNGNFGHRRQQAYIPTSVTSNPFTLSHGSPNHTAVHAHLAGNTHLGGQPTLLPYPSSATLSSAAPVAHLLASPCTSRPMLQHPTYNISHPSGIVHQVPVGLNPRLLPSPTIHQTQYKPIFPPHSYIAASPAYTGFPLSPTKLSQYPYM"}
{"SMILES": "COc1cccc(-c2cc(=O)c3ccccc3o2)c1N", "remaining activity": "101%"}
{"SMILES": "O=C1NC(=O)c2c1c1c3ccccc3[nH]c1n1cncc21", "remaining activity": "66.9%"}
{"SMILES": "O=C1Cc2c([nH]c3ccc(Br)cc23)-c2ccccc2N1", "remaining activity": "109%"}
{"SMILES": "CC(C)n1cnc2c(Nc3cccc(Cl)c3)nc(NCCO)nc21", "remaining activity": "99.9%"}
{"SMILES": "c1cc(-c2cnn3cc(-c4ccc(OCCN5CCCCC5)cc4)cnc23)ccn1", "remaining activity": "89.4%"}
{"SMILES": "NC(=O)c1ccc(-c2nc(-c3ccc4c(c3)OCCO4)c(-c3ccccn3)[nH]2)cc1", "remaining activity": "96.5%"}
{"SMILES": "O=C(O)/C=C/c1cc(Br)c(Br)c(Br)c1Br", "remaining activity": "96.7%"}
{"SMILES": "CCCNC(=O)Nc1ccc(Oc2ncnc3cc(OC)c(OC)cc23)cc1Cl", "remaining activity": "96.2%"}
{"SMILES": "O=C1Nc2ccc(Br)cc2/C1=C/c1cc2c([nH]1)CCCC2", "remaining activity": "96.7%"}
{"SMILES": "O=C1NC(=O)/C(=C/c2ccc3c(c2)OC(F)(F)O3)S1", "remaining activity": "90.1%"}
{"SMILES": "COc1cc2c(N3CCN(C(=O)Nc4ccc(OC(C)C)cc4)CC3)ncnc2cc1OCCCN1CCCCC1", "remaining activity": "101%"}
{"SMILES": "c1ccc(-c2n[nH]c3c2oc2ccccc23)cc1", "remaining activity": "80.7%"}
{"SMILES": "Oc1cccc(-c2nc(N3CCOCC3)c3oc4ncccc4c3n2)c1", "remaining activity": "93.8%"}
{"SMILES": "O=c1c(-c2ccc(F)cc2)c(-c2ccncc2)[nH]n1-c1ccc(Cl)cc1", "remaining activity": "101%"}
{"SMILES": "CNc1cc2c(Nc3cccc(Br)c3)ncnc2cn1", "remaining activity": "94.1%"}
{"SMILES": "CC(C)(C)c1nc2c3cc[nH]c(=O)c3c3cc(F)ccc3c2[nH]1", "remaining activity": "78.6%"}
{"SMILES": "O=c1cc(N2CCOCC2)oc2c(-c3ccccc3)cccc12", "remaining activity": "120%"}
{"SMILES": "O=C(c1cc2cc(O)ccc2[nH]1)c1cc2cc(O)ccc2[nH]1", "remaining activity": "97.3%"}
{"SMILES": "CCCCc1c(-c2ccc(O)cc2)[nH]c2nccnc12", "remaining activity": "100%"}
